Experimental data gathered from unrelated publications.
Every numbered part comes from another study and shows a few of its results, in no order. Changes are numbered by the printed parent chain.

Set 1
Target: RING finger protein unkempt homolog, zinc fingers 1-6, GST-SBP tag (UNK, Homo sapiens, UniProt Q9C0B0, residues 30-357)
Method: RNA Bind-n-Seq
Form: RNA
Medium: in vitro
Concentration: not given
Setting: RNA with constant flanks, human-mouse chimeric sites, ends assumed
Relative to: input RNA pool
Direction: higher = stronger binding
Residues (chain): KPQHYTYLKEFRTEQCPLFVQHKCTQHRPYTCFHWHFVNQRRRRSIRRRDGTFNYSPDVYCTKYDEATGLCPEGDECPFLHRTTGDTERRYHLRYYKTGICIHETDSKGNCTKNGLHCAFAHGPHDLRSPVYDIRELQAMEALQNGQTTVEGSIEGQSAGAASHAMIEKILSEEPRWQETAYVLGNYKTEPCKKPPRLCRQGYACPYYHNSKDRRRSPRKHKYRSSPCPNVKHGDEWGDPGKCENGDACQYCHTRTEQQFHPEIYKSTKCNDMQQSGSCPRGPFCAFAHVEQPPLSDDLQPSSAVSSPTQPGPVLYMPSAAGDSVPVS
`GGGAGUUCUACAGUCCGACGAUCUCAGUCUAGCUUUUAAUCUUUGUAAAUUCUUAACAUUUUUAUAUUGCCAUGUUUAUUUUGUUUGGGUAAUUUGGUUCAUUAAGUACAUAGCUAAGGUAAUGAACAUCUUUUUCAGUAAUUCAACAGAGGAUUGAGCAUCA` has a bound/input enrichment of 11.6 ratio.
The bound/input enrichment of `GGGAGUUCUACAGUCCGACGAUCGGUGGGGGGUUGUCAUUCGUUUGAGCUCUGCUGAUUCAUGAGUCGCCUUCAAAACUCUCGUGUAGGGUUGACAAUGUGGGGGGGUGGGGGAUCCAGCUUAUUCUUUUAUUUUCAAGUCCACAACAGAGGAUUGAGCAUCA` is reported as 1.11 ratio.
The bound/input enrichment of `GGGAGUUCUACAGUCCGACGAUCCUUAAUGAUAUUUUGAGUGAAUAAAUGAAGCUAAAAUGUCUGCUUUUGGUACAACACGCAUUAAUAAAAGGUUAAGUAAGUUUUGUUACUGAAGUACUAUUUAACAUCUCAGAAAAAAACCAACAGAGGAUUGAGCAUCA` is reported as 0.169 ratio.
`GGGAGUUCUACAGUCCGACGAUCUGACAAGGGCACUGCAGAGCCAUGCCUUUCCUUGACAUACAGAAAAAGCUGGGCAUCAGCCUGGACCGGCACUUUAUAAUCCAGAGUGCAGAACAGCCCUAUAAGAACGCCGCUCGGUGCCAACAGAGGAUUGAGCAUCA` gave a bound/input enrichment of 0.0737 ratio.
`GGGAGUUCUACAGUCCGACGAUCGCAAAGGAUGAUGAGGCGGCAGCUGUUGCCCUUUCCUCUCUCGUUCAUGCUUUGGAUGACUUAGACAUGGUCGCCAUCGUCCGAUAUGCUUAUGACAAAAGAUCUAAUCCUCAAGUUGGUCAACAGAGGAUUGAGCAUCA` gave a bound/input enrichment of 0.259 ratio.
For `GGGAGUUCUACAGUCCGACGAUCCGCGUCCUCUCGCUGCUGCGGAGCCCGCCCAGCUGGGCAUUCCGGGACUGGUACCCUGCACACAGCCGCCUCUUCGAUCAAGCUUUCGGGGUGCCCCGGUUGCCCGAUGAGUGGUCGCAGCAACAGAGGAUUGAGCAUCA`, the bound/input enrichment was 0.095 ratio.
`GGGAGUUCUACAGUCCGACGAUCACACAAUAUGAGACCAACAGCAUGGACUUCAAAGUUGGGGCAGAUGGGACAGUCUUCGCCACCCGGGAGUUGAAGAUCCCCUCCGAGCAGGUGGCCUUCACGGUGACUGCAUGGGACAGCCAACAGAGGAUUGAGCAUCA` gave a bound/input enrichment of 0.263 ratio.
The bound/input enrichment of `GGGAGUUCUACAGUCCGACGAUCGUAAUGGACGUCAACACUGCUUUACAAGAGGUUCUGAAGACCGCCCUCAUCCACGAUGGCCUAGCACGUGGCAUACGCGAAGCUGCCAAAGCCUUAGACAAGCGCCAAGCCCAUCUGUGUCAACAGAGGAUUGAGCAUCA` is reported as 0.18 ratio.

Set 2
Target: Histone acetyltransferase KAT6A, both winged helices, GST fusion (KAT6A, Homo sapiens, UniProt Q92794, residues 1-181)
Method: protein binding microarray
Form: double-stranded DNA, one strand shown
Medium: in vitro
Concentration: not given
Setting: 8-mer, flanks averaged, mean of 2 arrays, mostly near background
Relative to: not given
Direction: higher = stronger binding
Construct (chain): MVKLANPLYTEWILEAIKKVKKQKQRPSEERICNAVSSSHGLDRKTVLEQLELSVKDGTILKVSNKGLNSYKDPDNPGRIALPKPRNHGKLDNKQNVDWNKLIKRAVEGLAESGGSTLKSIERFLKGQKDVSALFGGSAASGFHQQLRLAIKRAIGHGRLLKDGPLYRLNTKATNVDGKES
The E-score of `TGGAGCCA` is reported as -0.222.
For `AAATCATT`, the E-score was -0.0881.
The E-score of `AAGCAGAC` is reported as -0.125.
For `AGCCGGCG`, the E-score was 0.373.
`AAGTGTAC` gave an E-score of -0.0774.
The E-score of `GACAGTAC` is reported as -0.0512.
`AGAAGTGG` gave an E-score of -0.222.
`CATTGCGC` has an E-score of 0.218.
The E-score of `CCCAGCCG` is reported as 0.101.
The E-score of `CATTTGGG` is reported as -0.0579.
`CGTTACTA` has an E-score of -0.0673.
`AAGAGGTG` gave an E-score of -0.101.
The E-score of `AGTAGCAA` is reported as 0.0582.
For `GTCCAGCA`, the E-score was -0.192.
The E-score of `GTCCGTTA` is reported as 0.12.
`AGTGACTG` gave an E-score of -0.0449.
With `CAATCCTC` the E-score was -0.244.
`CACCAAGC` gave an E-score of 0.00874.
`ACATTTCT` gave an E-score of -0.0675.
`ATCACTAC` has an E-score of -0.142.
For `TCGTTCAA`, the E-score was 0.0155.
`CCTACCCG` gave an E-score of 0.132.
The E-score of `ACGCGATG` is reported as 0.173.
For `CAAGGTTC`, the E-score was -0.0522.
For `CCTTCGAG`, the E-score was -0.0268.

Set 3
Target: RNA binding protein fox-1 homolog 2, RRM domain, GST-SBP tag (RBFOX2, Homo sapiens, UniProt O43251-10, residues 100-194)
Method: RNA Bind-n-Seq
Form: RNA
Medium: in vitro
Concentration: 365 nM
Setting: natural RNA segment, single round, ends assumed
Relative to: no-protein control
Direction: higher = stronger binding
Target sequence (chain): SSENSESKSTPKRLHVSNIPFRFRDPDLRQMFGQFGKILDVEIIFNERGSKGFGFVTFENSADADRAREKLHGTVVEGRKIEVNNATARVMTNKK
`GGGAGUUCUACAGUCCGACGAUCAAAAUGGAAAAUAGUAAACACGGGAAUUGAUUUUAUUCUGGUUGUCUAUAAUACUUCAUUUUAAAUGUAAAUGGCCACUCUGCAUUUGCAAGGCCCGGUGGUUGACAUCUUGGAAUUCUCGGGUGCCAA` — result for “RBNS enrichment (R)”: 0.288.
For `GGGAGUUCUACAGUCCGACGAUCCGGUGGCUGGUCUUCCAUUUACAGUGUCACUAUUCCUUGAUGGAGCAGUUAUGUGCCCGCUCUGGUGAUGGCCCCAGCCAGUGAUGCUAGGCCUAAUUGUUCAUCAUCAAUGGAAUUCUCGGGUGCCAA`, “RBNS enrichment (R)” read 0.822.
`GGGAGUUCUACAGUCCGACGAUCCCACUCUCACUCUUGGUGCAACUGACUUCCACUUCUUAUGCAGCCACUCCCAGGUGCAUGCUUCAGUGAGUGCCACAUGCCACUAGCUUUUACCAAUAACCAUAUUCUGGUGGAAUUCUCGGGUGCCAA`: “RBNS enrichment (R)” 2.01.
For `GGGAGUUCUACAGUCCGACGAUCUGUCAUUAAUUAUCAAUACUAACGAGUAUGUCAUUUUAAAACUUAGUAUUCUCUUUAAUGUUACAAGUUUUCUCCAUCCUGUUAAAUAAUAUUUAUAAUUAUUUUAACAGUGGAAUUCUCGGGUGCCAA`, “RBNS enrichment (R)” read 0.885.
For `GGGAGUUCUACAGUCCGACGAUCUUAGGAGGGCUUUAGGGGCUCCCUGGUUGAGUAUCACCCUGCCCCUUCCCCUCUCUUCCUCCCCUCUGCACUUUGUUUACUUGUUUUGCACAGACGUGGGCCUGGGCCUUUGGAAUUCUCGGGUGCCAA`, “RBNS enrichment (R)” read 0.627.
`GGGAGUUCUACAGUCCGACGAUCCCGAGCUGCCGACUGGAGGGACGUGUCGGAGCUUCUCAAGCCUCUUGGUCUCUACGAUCUCCGUGCAAAAACCAUUAUCAAGUUCUCAGAUGAAUAUCUGACAAAGCAGUUGGAAUUCUCGGGUGCCAA` — result for “RBNS enrichment (R)”: 0.55.
Under “RBNS enrichment (R)”, `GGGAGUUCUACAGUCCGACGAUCGUCAGGUCUGUUCCCCAACUGAAAGGGCUGUAAAAGAAUGGAUUAAUGUUUAGCUCUCACAAAGAGAGAUAACCUUGGAUACAUCUUCAUCUUCUAGCUAUAUAAAGAAAUGGAAUUCUCGGGUGCCAA` is recorded as 0.62.
For `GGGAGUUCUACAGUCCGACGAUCAAUCCUGUAGACCUUGACAUUCAGAAAGAUGUGAGCUGCUUACUGAUCAUAUAUGCAUACGUUUCUUUACAGCAGAGGAAACCAUUGUCCACAAAACUGAUGUUCUUUUGUGGAAUUCUCGGGUGCCAA`, “RBNS enrichment (R)” read 0.599.

Set 4
Target: ABI1, truncated, D143A, DHFR fusion (Arabidopsis thaliana)
Method: DHFR PCA, deep sequencing
Medium: yeast
Setting: methotrexate growth selection, single substitutions
Added: (+)-ABA 0.39 µM
Relative to: wild-type fitted maximum
Direction: higher = stronger binding
Parent: PYL1, truncated, DHFR fusion (Arabidopsis thaliana); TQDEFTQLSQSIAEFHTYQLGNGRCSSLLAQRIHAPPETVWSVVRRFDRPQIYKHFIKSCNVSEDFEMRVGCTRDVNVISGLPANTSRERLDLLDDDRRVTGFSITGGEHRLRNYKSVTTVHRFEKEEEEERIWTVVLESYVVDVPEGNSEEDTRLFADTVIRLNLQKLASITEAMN; partner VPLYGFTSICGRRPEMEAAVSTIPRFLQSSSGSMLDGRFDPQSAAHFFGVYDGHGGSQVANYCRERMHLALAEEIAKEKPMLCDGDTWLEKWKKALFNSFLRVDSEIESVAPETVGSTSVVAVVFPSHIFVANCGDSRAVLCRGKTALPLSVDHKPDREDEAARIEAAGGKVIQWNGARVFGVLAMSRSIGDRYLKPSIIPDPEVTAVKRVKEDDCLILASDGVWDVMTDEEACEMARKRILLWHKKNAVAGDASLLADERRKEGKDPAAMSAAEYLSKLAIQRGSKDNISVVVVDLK
`T86P` — result for “relative binding score”: -2.49%.
`R163S`: “relative binding score” 31.7%.
For `S80D`, “relative binding score” read -5.74%.
`A13E` — result for “relative binding score”: 52.5%.
`P146Y`: “relative binding score” -24.5%.
`F66K` — result for “relative binding score”: 13%.
`N114S` — result for “relative binding score”: 8.5%.
For `G102F`, “relative binding score” read -7.75%.
`S63H`: “relative binding score” 23.3%.
`I162Y`: “relative binding score” -24.4%.
`T101C`: “relative binding score” 26.1%.
For `V142K`, “relative binding score” read -13.3%.
Under “relative binding score”, `S42P` is recorded as -4.77%.
Under “relative binding score”, `S171H` is recorded as 45.5%.

For quick reference, copied from above (set 2):
The E-score of `GACAGTAC` is reported as -0.0512.
`CGTTACTA` has an E-score of -0.0673.
The E-score of `TGGAGCCA` is reported as -0.222.
`ATCACTAC` has an E-score of -0.142.
`ACATTTCT` gave an E-score of -0.0675.
